Measured values of several laboratories.
Every numbered part comes from another study and shows a few of its results, in no order. Changes are numbered by the printed parent chain.
UniProt Q6XUX3, sequence (whole entry, looked up): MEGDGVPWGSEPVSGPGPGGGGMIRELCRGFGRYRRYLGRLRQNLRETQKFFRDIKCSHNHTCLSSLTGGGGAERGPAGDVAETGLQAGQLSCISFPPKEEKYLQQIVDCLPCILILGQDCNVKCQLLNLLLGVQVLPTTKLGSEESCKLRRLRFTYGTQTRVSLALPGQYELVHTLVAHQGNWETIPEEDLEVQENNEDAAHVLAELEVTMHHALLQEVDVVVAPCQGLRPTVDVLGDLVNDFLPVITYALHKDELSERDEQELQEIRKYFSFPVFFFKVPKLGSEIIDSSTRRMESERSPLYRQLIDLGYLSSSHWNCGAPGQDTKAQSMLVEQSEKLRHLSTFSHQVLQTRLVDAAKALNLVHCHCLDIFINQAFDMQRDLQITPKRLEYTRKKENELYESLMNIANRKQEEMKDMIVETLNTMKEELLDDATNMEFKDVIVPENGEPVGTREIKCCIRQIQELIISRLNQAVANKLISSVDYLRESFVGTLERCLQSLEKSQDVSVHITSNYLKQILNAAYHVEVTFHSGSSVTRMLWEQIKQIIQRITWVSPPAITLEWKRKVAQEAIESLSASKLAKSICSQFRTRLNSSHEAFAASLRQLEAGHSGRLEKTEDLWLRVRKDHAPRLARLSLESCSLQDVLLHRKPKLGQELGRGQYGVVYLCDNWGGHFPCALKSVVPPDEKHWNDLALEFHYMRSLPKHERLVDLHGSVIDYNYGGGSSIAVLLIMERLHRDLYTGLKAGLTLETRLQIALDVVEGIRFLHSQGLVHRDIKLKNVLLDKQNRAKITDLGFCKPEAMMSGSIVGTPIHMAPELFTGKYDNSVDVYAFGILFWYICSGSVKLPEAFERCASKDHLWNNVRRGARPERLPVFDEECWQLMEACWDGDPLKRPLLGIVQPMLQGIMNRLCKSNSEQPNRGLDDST

Study 1 — method: competition protein-binding microarray; form: double-stranded DNA, one strand shown; sample: in vitro; concentration: 2 µM; together with: Pho4 competitor, 0.05 µM; direction: higher = stronger binding
Target: Centromere-binding protein 1, full length, His-tagged (CBF1, Saccharomyces cerevisiae, UniProt P17106, residues 1-351)
UniProt P17106, sequence (whole entry, looked up): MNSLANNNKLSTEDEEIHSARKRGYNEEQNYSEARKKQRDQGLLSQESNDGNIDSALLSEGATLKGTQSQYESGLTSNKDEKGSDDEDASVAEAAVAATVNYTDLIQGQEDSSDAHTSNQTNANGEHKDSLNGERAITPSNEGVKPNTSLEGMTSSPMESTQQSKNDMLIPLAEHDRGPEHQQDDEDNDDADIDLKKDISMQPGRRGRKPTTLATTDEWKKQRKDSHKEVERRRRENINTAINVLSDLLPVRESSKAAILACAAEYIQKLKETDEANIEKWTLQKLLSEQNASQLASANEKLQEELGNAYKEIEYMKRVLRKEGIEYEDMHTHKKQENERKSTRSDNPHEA
Notes: whole 60-bp probe, lowest competitor level
`CGGGGTTAAGTTTGACACGTGTTTTGCTTGCAGCAGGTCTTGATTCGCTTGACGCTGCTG` has a fluorescence intensity of 1300 a.u.
For `CAGCCGCTCGTCACCCGCGTGATGCTGTTTCTGGCGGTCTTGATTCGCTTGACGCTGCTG`, the fluorescence intensity was 146 a.u.
`TGGATAAAATTTAAGCGCGTGAAATTGGAATCTAAAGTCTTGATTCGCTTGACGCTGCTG` gave a fluorescence intensity of 104 a.u.
`GAGTGCTTTGTTTCTTCCGTGATGGTTTAATGGTCAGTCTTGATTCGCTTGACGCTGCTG` has a fluorescence intensity of 75.5 a.u.
With `CGCAGCCTCTACCGTCACGTGTAACAGTACGGCAGGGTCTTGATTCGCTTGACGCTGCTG` the fluorescence intensity was 3670 a.u.
`TCTCGTCTTGCTCTTCTTTTAAGAAATATTTGCCGCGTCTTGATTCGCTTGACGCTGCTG` gave a fluorescence intensity of 86.1 a.u.
The fluorescence intensity of `TCCAATTGTTAGAACGCCAGTCAGTTGTTTTCTTCGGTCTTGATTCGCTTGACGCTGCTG` is reported as 60 a.u.
For `TTCGGGTGCCAATTTAGCGTGCTTTGATCTAACTATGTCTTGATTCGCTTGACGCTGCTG`, the fluorescence intensity was 67.7 a.u.

Study 2 — target: CREB3L3, bZIP domain (human); method: DHFR protein complementation; sample: yeast; reference: wild-type JUN-FOS pair; direction: higher = stronger binding
Notes: single substitutions, most at no-binding floor
Parent: JUN, bZIP domain (human); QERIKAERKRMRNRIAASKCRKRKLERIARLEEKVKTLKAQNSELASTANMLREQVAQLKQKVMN; partner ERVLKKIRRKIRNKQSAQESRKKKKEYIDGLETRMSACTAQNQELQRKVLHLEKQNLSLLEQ
The binding fitness of `T48P` is reported as -1.53 natural log.
With `S47T` the binding fitness was -1.36 natural log.
With `L59H` the binding fitness was -1.52 natural log.
`A40C` gave a binding fitness of -1.39 natural log.
With `N42Y` the binding fitness was -1.39 natural log.
With `Q41M` the binding fitness was -1.55 natural log.
The binding fitness of `N42P` is reported as -1.55 natural log.
For `R30Q`, the binding fitness was -1.51 natural log.

Study 3 — method: protein-binding microarray; form: double-stranded DNA, one strand shown; sample: in vitro; concentration: 250 nM; notes: 60-bp whole probe; together with: salmon DNA 0.4 mg/ml; reference: random background probes; direction: higher = stronger binding; all sequences stand within: GCCTAGCAC … GTCTTGATTCGCTTGACGCTGCTG
Target: Interferon regulatory factor 7, full length, phosphomimetic (IRF7, Homo sapiens, UniProt Q92985, residues 1-503, S101K/S471D/S472D/S475D/S476D/S477D/S483D/S484D/S487D)
UniProt Q92985, sequence (whole entry, unmodified, looked up): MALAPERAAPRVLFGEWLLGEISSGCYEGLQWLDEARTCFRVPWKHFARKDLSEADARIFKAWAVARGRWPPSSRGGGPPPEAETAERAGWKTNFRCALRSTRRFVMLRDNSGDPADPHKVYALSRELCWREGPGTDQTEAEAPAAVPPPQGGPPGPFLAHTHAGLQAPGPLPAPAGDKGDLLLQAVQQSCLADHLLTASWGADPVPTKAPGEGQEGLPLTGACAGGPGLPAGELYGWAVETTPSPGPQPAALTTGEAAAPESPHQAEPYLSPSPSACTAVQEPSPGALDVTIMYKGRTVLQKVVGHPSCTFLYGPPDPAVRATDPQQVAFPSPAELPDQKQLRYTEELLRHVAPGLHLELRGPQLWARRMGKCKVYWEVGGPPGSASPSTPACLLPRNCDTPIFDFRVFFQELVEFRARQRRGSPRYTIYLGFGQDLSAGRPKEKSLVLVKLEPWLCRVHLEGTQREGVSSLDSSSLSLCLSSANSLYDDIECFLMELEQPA
`GACGGTCTCGGTTTCGGGTCGTGCTAG` has a log fluorescence of 10.4 z-score.
`TTAGGTCTCAGTATCGGTTAGTGCTAG` gave a log fluorescence of 1.56 z-score.
For `TTAGGTATCGACATTCGGTTAGTGCTA`, the log fluorescence was 1.13 z-score.
For `TAACCTTGAACTTTGGCCTCGTGCTAG`, the log fluorescence was -0.0307 z-score.
For `GAGGGTTTCGGGACTGGGGACGTGCTA`, the log fluorescence was 2.01 z-score.
For `TCAGTTCTGGGAAATATTACTGTGCTA`, the log fluorescence was 0.215 z-score.
`CAGAGCCTCAGTCCTCACACAGTGCTA` gave a log fluorescence of -0.717 z-score.
`GGCTTCCTCTTTCTCTGCTAGTGCTAG` gave a log fluorescence of 1.53 z-score.

Mixed results
`COc1cc2ncnc(N3CCN(C(=O)Nc4ccc(Oc5ccccc5)cc4)CC3)c2cc1OC` has a remaining activity of 113% (Dual serine/threonine and tyrosine protein kinase (DSTYK, Homo sapiens, UniProt Q6XUX3); enzyme activity, inhibitor; 0.5 µM; reference: control).

A few entries again (mixed results):
`COc1cc2ncnc(N3CCN(C(=O)Nc4ccc(Oc5ccccc5)cc4)CC3)c2cc1OC` has a remaining activity of 113% (Dual serine/threonine and tyrosine protein kinase (DSTYK, Homo sapiens, UniProt Q6XUX3); enzyme activity, inhibitor; 0.5 µM; reference: control).
